Experimental data pooled from the literature.
Protocols differ between the studies behind these lines. ± marks the error that the study gave.

SMILES	target	test	test system	setting	scale	endpoint	value
CN(Cc1cc(C2CC2)on1)C(=O)c1cccc(-c2ccc3c(c2)CCO3)c1	acetyl-CoA synthetase 1 (Aspergillus fumigatus)	enzyme activity, inhibitor, coupled pyrophosphate		200 nM	higher is more activity	reaction rate	0.00127 a.u.
NCCOc1cc(NC(=O)c2cc(OCc3cn([C@H]4O[C@@H](CO)[C@H](O)[C@@H](O)[C@@H]4O)nn3)cc(C(=O)Nc3cc(OCCN)c4ccccc4n3)n2)nc2ccccc12	Bcl2 G-quadruplex DNA	FRET melting		1 µM, pH 7.4, together with: 60 mM potassium		ΔTm	6.5 ± 0.3 K
C=CC(=O)Nc1cccc(Cn2ncc3cnc(Nc4cnn(CCOC)c4)nc32)c1	PCTK2 human	binding, KINOMEscan		100 nM	lower = stronger binding	percent of control	100%
CCCCCC(=O)NC(CC(=O)N(CC)CC)C(=O)NC(Cc1ccc(F)cc1)C(=O)NC(Cc1ccc(F)cc1F)C(=O)C1(C)CO1 (centres unmarked)	proteasome β5, Trypanosoma brucei	activity-based probe labelling, inhibitor	parasite lysate	1 µM, 1 h preincubation, together with: Me4BodipyFL-Ahx3Leu3VS		probe labelling	inhibited
CC(C)(O)c1ccn2c(-c3ccc(F)c(-c4ccc(F)cc4C#N)c3)cnc2c1F	GABAA receptor, α1 and β2, CFP, YFP, G251D	FRET	HEK-293T	5 µM, 24 h, together with: hispidulin 10 µM		FRET efficiency	41 ± 2.1%
N=C(c1ccc([N+](=O)[O-])o1)N1CCC(NC(=O)c2cc(-c3ccc(F)cc3F)on2)(c2nc3ccccc3[nH]2)CC1	STING pathway	inhibitor, immunoblot	mouse BMDM, wild type	5 µM, 1 h pretreatment, together with: diABZI		TBK1 and IRF3 phosphorylation	inhibited
Cc1cn(CC(=O)N(CCNC(=O)CN(CCNC(=O)CN(CCNC(=O)CN(CCNC(=O)CN(CCNC(=O)CN(CCNC(=O)CN(CCNC(=O)CN(CCN)C(=O)Cn2cnc3c(=O)[nH]c(N)nc32)C(=O)Cn2cnc3c(N)ncnc32)C(=O)Cn2cc(C)c(=O)[nH]c2=O)C(=O)Cn2cnc3c(=O)[nH]c(N)nc32)C(=O)Cn2cc(C)c(=O)[nH]c2=O)C(=O)Cn2cnc3c(=O)[nH]c(N)nc32)C(=O)Cn2cnc3c(N)ncnc32)CC(=O)NCCN(CC(=O)NCCOCCOCC(N)=O)C(=O)Cn2cnc3c(N)ncnc32)c(=O)[nH]c1=O	mismatched DNA TG	duplex formation, UV melting			reference: complementary DNA	ΔTm	-16.6 °C
O=c1cc(-c2ccccc2)oc2c(Br)c(O)c(O)c(O)c12	bovine serum albumin	methylglyoxal-mediated glycation, fluorescence		concentration not given		inhibition	35.6 ± 0.71%
O=C(Nc1cc(OCCN2CCCC2)c2ccccc2n1)c1cccc(C(=O)Nc2cc(OCCN3CCCC3)c3ccccc3n2)n1	Bcl2 G-quadruplex DNA	FRET melting		1 µM, pH 7.4, together with: 60 mM potassium		ΔTm	3.5 ± 0.4 K
c1ccc(-c2n[nH]cc2-c2ccnc3ccccc23)nc1	BCK1 (Candida albicans)	kinase binding, MIB/MS competition	Candida albicans lysate	1 µM	reference: DMSO	log2 fold change	0.09
CC(=O)N1c2ccc(-c3ccc(CNC(=O)c4cn5cc(-c6cnc(N)nc6)nc(N6CCOCC6)c5n4)cc3)cc2CC[C@@H]1C	human TRIM33 PHD-bromodomain	BROMOscan		10000 nM	reference: control	remaining binding	96%
Cc1c(C)c2cccnc2c2ncccc12.O=[N+]([O-])[O-].O=c1c(C=NN=C([S-])Nc2ccccc2)coc2ccccc12.[Cu+2]	supercoiled pUC19 DNA	oxidative DNA cleavage		concentration not given, sodium azide 50 µM, together with: ascorbic acid		nicked circular DNA	100%
C=CC(=O)N1[C@H](c2ccc3c(c2)OCO3)c2[nH]c3ccccc3c2C[C@@H]1C(=O)N1CCN(C)CC1	human cyclin E1 N112C-3xFLAG:CDK2	co-IP with TMT proteomics, item: HNRNPK		concentration not given, P61978	reference: wild type DMSO	relative co-enrichment	120%
O=C1CC(c2ccccc2)Oc2c(Br)c(O)c(Br)c(O)c21 (centres unmarked)	bovine serum albumin	methylglyoxal-mediated glycation, fluorescence		concentration not given		inhibition	46.3 ± 2.23%
Nc1ncc(-c2cc(-c3cnn(CC(F)(F)F)c3)ncc2F)nc1C(=O)NC1CNCC(F)C1 (centres unmarked)	CAMKK1	KINOMEscan		1 µM	reference: DMSO control	remaining binding	100%
O=c1cc(-c2ccccc2)oc2c(Br)c(O)c(Br)c(O)c12	bovine serum albumin	methylglyoxal-mediated glycation, fluorescence		concentration not given		inhibition	97.01 ± 0.04%
COc1ccc(C(=O)Nc2c(-c3cccs3)nc3ccccn23)cc1	sigma receptor 2	binding		10 µM		inhibition	< 50%
NCCOc1cc(NC(=O)c2cc(OCc3cn(Cc4ccc(C(=O)O)cc4)nn3)cc(C(=O)Nc3cc(OCCN)c4ccccc4n3)n2)nc2ccccc12	Bcl2 G-quadruplex DNA	FRET melting		1 µM, pH 7.4, together with: 60 mM potassium		ΔTm	4.2 ± 0.3 K
N=C(NCC[C@H](NC(=O)c1noc(-c2cc(F)ccc2F)n1)c1nc2ccccc2[nH]1)c1ccc([N+](=O)[O-])o1	STING pathway	inhibitor, RT-qPCR	mouse iBMDM	concentration not given, 2 h, together with: diABZI 500 nM		IFNβ mRNA level	inhibited
Cc1cn(CC(=O)N(CC(=O)N[C@H]2COC[C@@H]2N(CC(=O)NCCOCCOCC(N)=O)C(=O)Cn2cnc3c(N)ncnc32)[C@H]2COC[C@@H]2NC(=O)CN(C(=O)Cn2cnc3c(N)ncnc32)[C@H]2COC[C@@H]2NC(=O)CN(C(=O)Cn2cnc3c(=O)[nH]c(N)nc32)[C@H]2COC[C@@H]2NC(=O)CN(C(=O)Cn2cc(C)c(=O)[nH]c2=O)[C@H]2COC[C@@H]2NC(=O)CN(C(=O)Cn2cnc3c(=O)[nH]c(N)nc32)[C@H]2COC[C@@H]2NC(=O)CN(C(=O)Cn2cc(C)c(=O)[nH]c2=O)[C@H]2COC[C@@H]2NC(=O)CN(C(=O)Cn2cnc3c(N)ncnc32)[C@H]2COC[C@@H]2NC(=O)CN(C(=O)Cn2cnc3c(=O)[nH]c(N)nc32)[C@H]2COC[C@@H]2N)c(=O)[nH]c1=O	mismatched DNA TG	duplex formation, UV melting			reference: complementary DNA	ΔTm	-21.4 °C
